Published values collected from several papers.
RPLP2: RPLP2 (Homo sapiens, UniProt P05387)
Chain of UniProt P05387 (whole entry, looked up): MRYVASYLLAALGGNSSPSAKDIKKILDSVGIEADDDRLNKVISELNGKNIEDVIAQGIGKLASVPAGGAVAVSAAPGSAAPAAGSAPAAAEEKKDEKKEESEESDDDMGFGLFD
Mapk14: Mapk14, pT180, pY182 (Rattus norvegicus, UniProt P70618)
Chain of UniProt P70618 (whole entry, unmodified, looked up): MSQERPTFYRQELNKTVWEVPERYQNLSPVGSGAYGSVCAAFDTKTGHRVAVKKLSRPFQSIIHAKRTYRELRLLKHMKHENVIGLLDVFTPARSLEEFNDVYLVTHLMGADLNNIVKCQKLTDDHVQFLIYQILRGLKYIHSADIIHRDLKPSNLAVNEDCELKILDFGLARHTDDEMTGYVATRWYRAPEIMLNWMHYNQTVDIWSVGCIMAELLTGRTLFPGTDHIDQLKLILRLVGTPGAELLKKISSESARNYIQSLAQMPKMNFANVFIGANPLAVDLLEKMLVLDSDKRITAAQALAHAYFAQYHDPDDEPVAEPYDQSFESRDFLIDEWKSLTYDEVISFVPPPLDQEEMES
B1: CDC34 171-270 (Saccharomyces cerevisiae, UniProt P14682); chain IPKGFIMPTSESAYISQSKLDEPESNKDMADNFWYDSDLDDDENGSVILQDDDYDDGNNHIPFEDDDVYNYNDNDDDDERIEFEDDDDDDDDSIDNDSVM
B2: UGT1A9 (Homo sapiens, UniProt O60656); chain GKLLVVPMDGSHWFTMRSVVEKLILRGHEVVVVMPEVSWQLGRSLNCTVKTYSTSYTLEDLDREFKAFAHAQWKAQVRSIYSLLMGSYNDIFDLFFSNCRSLFKDKKLVEYLKESSFDAVFLDPFDNCGLIVAKYFSLPSVVFARGILCHYLEEGAQCPAPLSYVPRILLGFSDAMTFKERVRNHIMHLEEHLLCHRFFKNALEIASEILQTPVTEYDLYSHTSIWLLRTDFVLDYPKPVMPNMIFIGGINCHQGKPLPMEFEAYINASGEHGIVVFSLGSMVSEIPEKKAMAIADALGKIPQTVLWRYTGTRPSNLANNTILVKWLPQNDLLGHPMTRAFITHAGSHGVYESICNGVPMVMMPLFGDQMDNAKRMETKGAGVTLNVLEMTSEDLENALKAVINDKSYKENIMRLSSLHKDRPVEPLDLAVFWVEFVMRHKGAPHLRPAAHDLTWYQYHSLDVIGFLLAVVLTVAFITFKCCAYGYRKCLGKKGRVKKAHKSKTH
Chain of UniProt P11362 (whole entry, looked up): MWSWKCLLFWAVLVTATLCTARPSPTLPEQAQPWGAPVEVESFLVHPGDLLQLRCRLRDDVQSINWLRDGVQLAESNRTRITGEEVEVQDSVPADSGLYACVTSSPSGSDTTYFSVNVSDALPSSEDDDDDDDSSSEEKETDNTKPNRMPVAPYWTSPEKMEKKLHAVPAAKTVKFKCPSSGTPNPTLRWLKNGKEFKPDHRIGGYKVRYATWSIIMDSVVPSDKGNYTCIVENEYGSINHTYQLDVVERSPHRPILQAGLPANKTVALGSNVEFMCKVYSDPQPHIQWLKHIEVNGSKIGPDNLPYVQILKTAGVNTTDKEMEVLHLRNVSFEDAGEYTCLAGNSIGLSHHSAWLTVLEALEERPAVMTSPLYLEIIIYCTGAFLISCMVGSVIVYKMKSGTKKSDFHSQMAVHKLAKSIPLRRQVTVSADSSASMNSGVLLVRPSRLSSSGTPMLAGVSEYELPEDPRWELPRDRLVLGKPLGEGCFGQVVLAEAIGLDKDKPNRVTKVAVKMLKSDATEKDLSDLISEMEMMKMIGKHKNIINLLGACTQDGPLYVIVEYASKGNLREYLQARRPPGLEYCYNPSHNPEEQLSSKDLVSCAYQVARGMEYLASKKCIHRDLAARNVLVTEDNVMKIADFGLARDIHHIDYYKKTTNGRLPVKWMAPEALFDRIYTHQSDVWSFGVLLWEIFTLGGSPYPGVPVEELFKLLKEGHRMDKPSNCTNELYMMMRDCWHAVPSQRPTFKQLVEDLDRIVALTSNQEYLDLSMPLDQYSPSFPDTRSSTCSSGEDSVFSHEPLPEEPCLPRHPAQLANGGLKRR
Chain of UniProt Q9H6P5 (whole entry, looked up): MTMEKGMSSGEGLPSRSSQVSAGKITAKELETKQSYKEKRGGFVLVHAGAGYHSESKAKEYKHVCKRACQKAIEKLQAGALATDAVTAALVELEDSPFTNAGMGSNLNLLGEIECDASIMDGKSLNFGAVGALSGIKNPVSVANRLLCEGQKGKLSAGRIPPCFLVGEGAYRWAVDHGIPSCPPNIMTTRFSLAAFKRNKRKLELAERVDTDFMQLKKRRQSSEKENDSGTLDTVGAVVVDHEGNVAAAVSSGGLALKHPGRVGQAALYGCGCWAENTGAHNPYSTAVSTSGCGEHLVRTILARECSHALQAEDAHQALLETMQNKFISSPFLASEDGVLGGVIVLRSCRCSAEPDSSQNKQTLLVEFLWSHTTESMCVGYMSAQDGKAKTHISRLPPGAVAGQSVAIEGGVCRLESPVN
Chain of UniProt P12259 (whole entry, unmodified, looked up): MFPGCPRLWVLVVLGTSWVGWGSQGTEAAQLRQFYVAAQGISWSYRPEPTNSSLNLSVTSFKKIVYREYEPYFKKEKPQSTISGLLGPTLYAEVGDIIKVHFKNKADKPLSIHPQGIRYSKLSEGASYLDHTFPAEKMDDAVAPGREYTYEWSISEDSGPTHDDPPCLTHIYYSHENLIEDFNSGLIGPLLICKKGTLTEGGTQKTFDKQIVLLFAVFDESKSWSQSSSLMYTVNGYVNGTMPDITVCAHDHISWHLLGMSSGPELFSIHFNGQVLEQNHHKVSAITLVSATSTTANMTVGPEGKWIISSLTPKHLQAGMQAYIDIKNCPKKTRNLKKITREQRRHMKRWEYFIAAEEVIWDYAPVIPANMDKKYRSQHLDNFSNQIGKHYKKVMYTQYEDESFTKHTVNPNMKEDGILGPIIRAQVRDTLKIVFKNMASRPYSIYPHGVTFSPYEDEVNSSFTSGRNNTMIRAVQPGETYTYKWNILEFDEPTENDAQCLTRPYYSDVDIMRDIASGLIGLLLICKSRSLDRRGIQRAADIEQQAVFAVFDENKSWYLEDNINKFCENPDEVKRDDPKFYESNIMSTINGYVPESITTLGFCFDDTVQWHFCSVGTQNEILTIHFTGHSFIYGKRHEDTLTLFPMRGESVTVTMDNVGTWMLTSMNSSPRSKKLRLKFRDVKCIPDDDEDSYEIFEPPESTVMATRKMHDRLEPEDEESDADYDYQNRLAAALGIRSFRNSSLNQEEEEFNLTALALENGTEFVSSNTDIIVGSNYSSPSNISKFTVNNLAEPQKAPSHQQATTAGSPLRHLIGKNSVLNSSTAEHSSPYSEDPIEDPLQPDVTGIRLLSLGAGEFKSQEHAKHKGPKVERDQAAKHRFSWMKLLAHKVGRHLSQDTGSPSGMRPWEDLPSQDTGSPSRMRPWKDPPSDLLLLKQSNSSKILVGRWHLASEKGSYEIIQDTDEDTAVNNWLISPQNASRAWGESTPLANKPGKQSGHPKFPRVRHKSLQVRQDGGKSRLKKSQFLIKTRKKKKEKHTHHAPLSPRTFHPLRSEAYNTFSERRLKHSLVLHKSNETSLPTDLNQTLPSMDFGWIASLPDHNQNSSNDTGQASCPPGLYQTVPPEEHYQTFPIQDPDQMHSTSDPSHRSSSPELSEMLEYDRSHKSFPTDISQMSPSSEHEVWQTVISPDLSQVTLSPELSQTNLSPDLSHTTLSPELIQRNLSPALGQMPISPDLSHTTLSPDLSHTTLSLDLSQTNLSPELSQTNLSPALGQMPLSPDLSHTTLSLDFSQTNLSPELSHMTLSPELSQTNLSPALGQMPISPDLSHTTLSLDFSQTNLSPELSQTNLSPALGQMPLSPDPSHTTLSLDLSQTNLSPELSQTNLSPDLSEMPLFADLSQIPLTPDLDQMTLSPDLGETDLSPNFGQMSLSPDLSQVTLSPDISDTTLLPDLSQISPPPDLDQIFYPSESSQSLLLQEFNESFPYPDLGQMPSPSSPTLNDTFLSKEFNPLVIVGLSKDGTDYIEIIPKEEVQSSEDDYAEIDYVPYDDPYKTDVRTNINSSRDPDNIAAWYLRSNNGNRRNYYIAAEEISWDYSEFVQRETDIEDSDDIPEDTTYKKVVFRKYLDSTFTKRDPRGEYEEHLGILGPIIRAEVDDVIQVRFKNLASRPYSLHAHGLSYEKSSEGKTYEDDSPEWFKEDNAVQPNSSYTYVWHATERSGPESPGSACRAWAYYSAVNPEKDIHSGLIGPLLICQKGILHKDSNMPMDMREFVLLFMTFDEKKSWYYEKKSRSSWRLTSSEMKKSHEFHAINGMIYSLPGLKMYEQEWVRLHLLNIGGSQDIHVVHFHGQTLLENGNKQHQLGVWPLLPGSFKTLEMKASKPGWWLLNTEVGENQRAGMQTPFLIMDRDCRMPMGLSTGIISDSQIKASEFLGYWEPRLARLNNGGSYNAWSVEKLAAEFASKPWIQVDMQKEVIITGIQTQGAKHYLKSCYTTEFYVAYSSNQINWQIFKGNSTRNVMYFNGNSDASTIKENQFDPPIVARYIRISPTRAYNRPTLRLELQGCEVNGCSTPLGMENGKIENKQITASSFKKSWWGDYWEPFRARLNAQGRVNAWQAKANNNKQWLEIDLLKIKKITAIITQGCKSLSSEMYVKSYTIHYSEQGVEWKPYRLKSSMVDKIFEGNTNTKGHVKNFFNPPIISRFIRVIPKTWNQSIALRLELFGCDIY

With `YASKGKKRNPGLKIPK (MAP2K6 residues 4-17 (Homo sapiens))` the IC50 was 65000 nM (Mapk14 N159K/E160S/E163T, pT180, pY182 (Rattus norvegicus, UniProt P70618); kinase activity, inhibitor, competitive kinase inhibition assay; peptide; together with: ATP 1 mM).
`B1 (CDC34 171-270)` gave an IC50 of 16000 nM (SKP1/CDC53/CDC4/HRT1 SCF complex (Saccharomyces cerevisiae); Sic1 ubiquitylation, inhibitor; 1 min).
With `Trichosanthin fragment K173A/R174A/K177A (Trichosanthes kirilowii)` the IC50 was 0.5 nM (RPLP2; in vitro translation inhibition; rabbit reticulocyte lysate).
For `Ac-ISQLD-vs (KMT2A residues 2714-2718, N-acetyl, C-terminal vinyl sulfone; reading uncertain; also: printed as Ac-Ile-Ser-Gln-Leu-Asp-vs; N-acetyl, C-terminal vinyl sulfone; vs = not defined here)`, the IC50 was 29400 nM (TASP1 (Homo sapiens, UniProt Q9H6P5); Taspase1 cleavage inhibition, inhibitor, FRET reporter assay; peptide; added simultaneously with substrate).
For `TFPI (Homo sapiens, UniProt P10646-1)`, the IC50 was 30.3 nM (F5 B-domain deleted 811-1490 R709Q/R1545Q (UniProt P12259); prothrombinase inhibition, inhibitor; together with: enoxaparin 0.8 u/mL).
With `YAKQVRKKEHKLKITP (AFAP1L2 D-site peptide (Homo sapiens))` the IC50 was 40000 nM (Mapk14; kinase activity, inhibitor, competitive kinase inhibition assay; peptide; together with: ATP 1 mM).
`Trichosanthin fragment K173A (Trichosanthes kirilowii)` has an IC50 of 0.2 nM (RPLP2; in vitro translation inhibition; rabbit reticulocyte lysate).
With `FGF1 fragment Q40P/S47I/H93G/C117S, vcMMAE on N-terminal Cys (Homo sapiens)` the IC50 was 40 nM (FGFR1 (Homo sapiens, UniProt P11362); cytotoxicity, alamarBlue viability; U2OS FGFR1; 96 hours, together with: heparin).
With `B2 (UGT1A9)` the Vmax was 3.93e-05 µmol/min/mg (O=C(c1ccc(OCCN2CCCCC2)cc1)c1c(-c2ccc(O)cc2)sc2cc(O)ccc12; steady-state kinetics; pH 7.4, 37 °C).
For `YAGRRKERPTSLNVFP (MAPK8IP3 D-site peptide (Homo sapiens))`, the IC50 was over 100000 nM (Mapk14; kinase activity, inhibitor, competitive kinase inhibition assay; peptide; together with: ATP 1 mM).
With `Trichosanthin fragment K177A (Trichosanthes kirilowii)` the IC50 was 0.09 nM (RPLP2; in vitro translation inhibition; rabbit reticulocyte lysate).
`HSPA1A (Homo sapiens, UniProt P0DMV8)` has an IC50 of 640 nM (MAPT (Homo sapiens, UniProt P10636-7); tau aggregation, light scattering, inhibitor; together with: ARA).

Excerpt of the above:
With `YASKGKKRNPGLKIPK (MAP2K6 residues 4-17 (Homo sapiens))` the IC50 was 65000 nM (Mapk14 N159K/E160S/E163T, pT180, pY182 (Rattus norvegicus, UniProt P70618); kinase activity, inhibitor, competitive kinase inhibition assay; peptide; together with: ATP 1 mM).
`B1 (CDC34 171-270)` gave an IC50 of 16000 nM (SKP1/CDC53/CDC4/HRT1 SCF complex (Saccharomyces cerevisiae); Sic1 ubiquitylation, inhibitor; 1 min).
